Results from different studies.
Values joined by “and” are separate records of one study, mostly repeats; a detail may differ. ± gives the spread as reported.
Cell line: HT-29

SMILES = O=C(Cc1cccc(C(F)(F)F)c1)Nc1cc(Oc2cc(C(=O)O)c3nc(NC(=O)C4CC4)sc3c2)ccc1F; test = necroptosis, CellTiter-Glo; conditions = together with: TNF, SMAC mimetic and zVAD (TSZ); quantity = EC50; value = > 10 µM
SMILES = CC(=O)OC[C@H]1O[C@@H](Sc2sc(C(=O)c3ccc(Br)cc3)c(N)c2-c2nc3ccccc3s2)[C@H](OC(C)=O)[C@@H](OC(C)=O)[C@@H]1OC(C)=O; test = SRB; conditions = 10 µM, 48 h; how to read = reference: untreated; quantity = growth; value = 59.8%
SMILES = CCc1c2c(nc3ccc(O)cc13)-c1cc3c(c(=O)n1C2)COC(=O)[C@@]3(CC)OC(=O)[C@H](N)C(C)C; test = cell viability, MTT; conditions = 72 h; quantity = EC50; value = 9.18 µM
SMILES = C=C1CC(OC(=O)C(C)(O)CCl)C2C(=C)C(=O)OC2C2C1CC(O)C2(O)CCl (stereo not shown); test = annexin V/PI; conditions = concentration not given, 48 h; quantity = necrotic cells; value = 23.6%
SMILES = O=C1CCNC(=O)[C@@H]2CCCN2C(=O)CCNC(=O)[C@H](Cc2c[nH]cn2)NC(=O)[C@H](Cc2c[nH]cn2)N1; test = MTT; conditions = 10 µg/mL, 6 h; quantity = viability; value = 29.3%
SMILES = O=C(Cc1cccc(C(F)(F)F)c1)Nc1cc(Oc2c(Cl)cc3nc(NC(=O)C4CC4)sc3c2Cl)ccc1F; test = necroptosis, CellTiter-Glo; conditions = together with: TNF, SMAC mimetic and zVAD (TSZ); quantity = EC50; value = 0.18 ± 0.04 µM
SMILES = CC[C@H](C)[C@@H]1NC(=O)[C@@H](CCC(N)=O)NC(=O)CNC(=O)[C@H](Cc2ccc(O)cc2)N=C[C@H](CC(C)C)NC(=O)[C@H](C(C)C)NC(=O)[C@H](CO)NC1=O; test = 20S proteasome activity; conditions = 6.7 µM, 2 h; quantity = inhibition; value = 80%
SMILES = COC(=O)c1cc(Oc2ccc(F)c(NC(=O)Cc3cccc(C(F)(F)F)c3)c2)cc2sc(NC(=O)C3CC3)nc12; test = necroptosis, CellTiter-Glo; conditions = together with: TNF, SMAC mimetic and zVAD (TSZ); quantity = EC50; value = > 10 µM
SMILES = COc1cc(CNC(=O)C[C@H](C)CCC=C(C)C)ccc1OCc1cn(-c2ccccc2)nn1; test = SRB; conditions = 10 µM, 48 h; quantity = growth percent; value = 99.5%
SMILES = O=C(Cc1cccc(C(F)(F)F)c1)Nc1cc(Oc2cc3sc(NC(=O)C4CC4)nc3cc2Br)ccc1F; test = necroptosis, CellTiter-Glo; conditions = together with: TNF, SMAC mimetic and zVAD (TSZ); quantity = EC50; value = 0.17 ± 0.02 µM
SMILES = CC(=C(c1ccc(O)cc1)c1ccc(Cl)cc1)c1ccc(Cl)cc1; test = cell growth or viability, SRB; quantity = GI50; value = 0.85 µM
SMILES = N#Cc1c(N)nc(N)nc1OCC1CCCCC1; test = cell growth or viability, SRB; conditions = 72 h; quantity = GI50; value = < 20 µM and 14 µM
SMILES = O=C(O)CCNC(=O)[C@H](Cc1c[nH]cn1)NC(=O)[C@H](Cc1c[nH]cn1)NC(=O)CCNC(=O)[C@@H]1CCCN1; test = MTT; conditions = 10 µg/mL, 6 h; quantity = viability; value = 34.9%
SMILES = CO[C@@H]1[C@@H](O[C@@H]2O[C@H](C)[C@@H](O[C@H]3C[C@@](C)(O)[C@@H](OC(=O)/C=C/c4ccc(C(F)(F)F)cc4)[C@H](C)O3)[C@H](N(C)C)[C@H]2O)[C@@H](CC=O)C[C@@H](C)[C@@H](O[C@H]2CC[C@H](N(C)C)[C@@H](C)O2)/C=C/C=C/C[C@@H](C)OC(=O)C[C@H]1O; test = cell growth or viability, CCK-8; conditions = 72 h; quantity = IC50; value = 2.32 µM
SMILES = CCCC(C)NC(=O)C(Nc1ccccc1C(=O)c1ccccc1)c1cn(C)c2ccccc12 (stereo not shown); test = cell growth or viability, MTT; conditions = 72 h; quantity = GI50; value = 6.4 µM
SMILES = COc1cc(CNC(=O)C[C@H](C)CCC=C(C)C)ccc1OCc1cn(-c2ccc(C#N)cc2)nn1; test = SRB; conditions = 10 µM, 48 h; quantity = growth percent; value = 77.5%
SMILES = Cc1nn(-c2ccc(S(=O)(=O)N[C@H](CO)CC(C)C)cc2)c2nn3nnnc3nc12; test = PI/Hoechst staining; conditions = 0.5 µM, 24 h; quantity = apoptotic cells; value = 23.5 ± 2.12%
SMILES = O=C(Cc1cccc(C(F)(F)F)c1)Nc1cc(Oc2cc(F)c3nc(NC(=O)C4CC4)sc3c2)ccc1F; test = necroptosis, CellTiter-Glo; conditions = together with: TNF, SMAC mimetic and zVAD (TSZ); quantity = EC50; value = 4.57 ± 1.22 µM
SMILES = COc1cc(CNC(=O)C[C@H](C)CCC=C(C)C)ccc1OCc1cn(-c2ccccc2F)nn1; test = SRB; conditions = 10 µM, 48 h; quantity = growth percent; value = 97.4%
SMILES = COc1cc2nc(NC(=O)C3CC3)sc2cc1Oc1ccc(F)c(NC(=O)Cc2cccc(C(F)(F)F)c2)c1; test = necroptosis, CellTiter-Glo; conditions = together with: TNF, SMAC mimetic and zVAD (TSZ); quantity = EC50; value = 0.01 ± 0.002 µM
SMILES = COc1cc(CNC(=O)C[C@H](C)CCC=C(C)C)ccc1OCc1cn(-c2ccc(Br)cc2)nn1; test = SRB; conditions = 10 µM, 48 h; quantity = growth percent; value = 94.4%
SMILES = Cc1ccc(C(C)C)cc1.O=C([N-]c1nc2ccccc2s1)c1cnccn1.[Cl-].[Ru+2]; test = cytotoxicity, MTT; how to read = reference: KMST-6 over HT-29; quantity = selectivity index; value = > 2
SMILES = COc1cc(CNC(=O)C[C@H](C)CCC=C(C)C)ccc1O; test = SRB; conditions = 10 µM, 48 h; quantity = growth percent; value = 104%
SMILES = O=C1CCNC(=O)[C@H](Cc2c[nH]cn2)NC(=O)[C@@H]2CCCN2C(=O)[C@H](Cc2c[nH]cn2)NC(=O)CCN1; test = LDH release; conditions = 10 µg/mL, 6 h, 1% FBS; quantity = viability; value = 71.6%
SMILES = CO[C@@H]1[C@@H](O[C@@H]2O[C@H](C)[C@@H](O[C@H]3C[C@@](C)(O)[C@@H](OC(=O)Cc4ccc(C(C)(C)C)cc4)[C@H](C)O3)[C@H](N(C)C)[C@H]2O)[C@@H](CC=O)C[C@@H](C)[C@@H](O[C@H]2CC[C@H](N(C)C)[C@@H](C)O2)/C=C/C=C/C[C@@H](C)OC(=O)C[C@H]1O; test = cell growth or viability, CCK-8; conditions = 72 h; quantity = IC50; value = 1.64 µM
SMILES = O=C(Cc1cccc(C(F)(F)F)c1)Nc1cc(Oc2c(F)cc3nc(NC(=O)C4CC4)sc3c2Cl)ccc1F; test = necroptosis, CellTiter-Glo; conditions = together with: TNF, SMAC mimetic and zVAD (TSZ); quantity = EC50; value = 0.076 ± 0.005 µM
SMILES = O=C(/C=C(O)/C=C/c1cccs1)/C=C/c1cccs1; test = DCFH-DA, SRB-normalized; conditions = 1 µM; how to read = reference: untreated cells; quantity = intracellular ROS; value = 111 ± 14.8%
SMILES = CC12CCCC(n3cc(C(=O)N4CCCC(N)C4)nn3)(C1)C1CC(C)(C)C1CC2 (stereo not shown); test = annexin V/PI flow cytometry; conditions = 10 µM, 48 h; quantity = apoptotic cells; value = 69.5%

Repeated from above:
SMILES = CC12CCCC(n3cc(C(=O)N4CCCC(N)C4)nn3)(C1)C1CC(C)(C)C1CC2 (stereo not shown); test = annexin V/PI flow cytometry; conditions = 10 µM, 48 h; quantity = apoptotic cells; value = 69.5%
SMILES = COc1cc(CNC(=O)C[C@H](C)CCC=C(C)C)ccc1OCc1cn(-c2ccc(Br)cc2)nn1; test = SRB; conditions = 10 µM, 48 h; quantity = growth percent; value = 94.4%
SMILES = COC(=O)c1cc(Oc2ccc(F)c(NC(=O)Cc3cccc(C(F)(F)F)c3)c2)cc2sc(NC(=O)C3CC3)nc12; test = necroptosis, CellTiter-Glo; conditions = together with: TNF, SMAC mimetic and zVAD (TSZ); quantity = EC50; value = > 10 µM
